Measurements from different studies.
pIC50: −log10 of the molar value.
Target: Tyrosine-protein kinase JAK2 (JAK2, Homo sapiens, UniProt O60674)
Chain of UniProt O60674 (whole entry, looked up): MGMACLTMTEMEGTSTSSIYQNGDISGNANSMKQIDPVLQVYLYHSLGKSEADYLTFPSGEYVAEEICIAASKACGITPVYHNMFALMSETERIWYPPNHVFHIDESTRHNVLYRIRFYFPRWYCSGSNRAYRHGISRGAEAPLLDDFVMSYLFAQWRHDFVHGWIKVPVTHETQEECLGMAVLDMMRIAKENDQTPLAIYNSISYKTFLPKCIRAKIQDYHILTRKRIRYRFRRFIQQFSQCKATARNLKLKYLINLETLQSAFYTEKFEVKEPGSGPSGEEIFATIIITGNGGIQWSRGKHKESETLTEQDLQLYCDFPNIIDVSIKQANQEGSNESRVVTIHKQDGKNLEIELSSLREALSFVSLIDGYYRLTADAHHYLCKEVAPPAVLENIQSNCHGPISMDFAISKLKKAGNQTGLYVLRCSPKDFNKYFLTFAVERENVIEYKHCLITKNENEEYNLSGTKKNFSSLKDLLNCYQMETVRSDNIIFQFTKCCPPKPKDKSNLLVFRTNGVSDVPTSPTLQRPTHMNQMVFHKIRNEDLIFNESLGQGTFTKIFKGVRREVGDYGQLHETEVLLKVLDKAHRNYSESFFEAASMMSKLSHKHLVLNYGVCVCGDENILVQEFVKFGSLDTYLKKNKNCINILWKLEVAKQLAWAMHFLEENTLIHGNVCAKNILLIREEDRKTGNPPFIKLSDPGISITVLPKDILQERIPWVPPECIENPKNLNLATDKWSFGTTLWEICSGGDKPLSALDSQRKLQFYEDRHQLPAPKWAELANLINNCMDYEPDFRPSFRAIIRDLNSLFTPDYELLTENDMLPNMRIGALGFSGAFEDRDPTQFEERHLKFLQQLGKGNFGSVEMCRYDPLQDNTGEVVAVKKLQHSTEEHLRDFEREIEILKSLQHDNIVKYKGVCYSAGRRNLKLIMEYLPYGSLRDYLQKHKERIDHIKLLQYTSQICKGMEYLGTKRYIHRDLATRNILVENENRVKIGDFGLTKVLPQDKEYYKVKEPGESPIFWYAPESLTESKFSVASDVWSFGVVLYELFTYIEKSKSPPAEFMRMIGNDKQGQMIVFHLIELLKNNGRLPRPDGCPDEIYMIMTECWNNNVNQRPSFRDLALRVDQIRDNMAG

Cc1nn(C)c(O)c1-c1nc2cc(Cl)c(Cl)cc2[nH]c1=O  pIC50 (enzyme activity, inhibitor, ADP detection): 7.89
N#Cc1ccc2oc(-c3cc(-c4cnn(C5CCNCC5)c4)cnc3N)nc2c1  pIC50 (enzyme activity, inhibitor, TR-FRET): 5.99
Cn1c(-c2ccccc2)c(-c2nc3ccccc3[nH]c2=O)c2ccccc21  pIC50 (enzyme activity, inhibitor, ADP detection): 7.69
Cc1cnc2nc1Nc1cccc(c1)COC/C=C/COCc1cc(ccc1OCCN1CCOCC1)N2  pIC50 (enzyme activity, inhibitor, FRET): 8.93
Cc1cnc(Nc2cc(C)c(C)c(C)c2)nc1Nc1ccc2oc(=O)[nH]c2c1  pIC50 (enzyme activity, inhibitor): 6.38
CCn1c(C)c(C(=O)c2ccccc2)c(=O)n1-c1cccc(S(N)(=O)=O)c1  pIC50 (enzyme activity, inhibitor, ADP detection): 7.90
Nc1ncc(-c2cnn(C3CCNCC3)c2)cc1-c1nc2ccc(Oc3cnccn3)cc2o1  pIC50 (enzyme activity, inhibitor, TR-FRET): 6.12
C=CC(=O)Nc1cccc(Cn2ncc3cnc(Nc4cnn(CCOC)c4)nc32)c1  pIC50 (enzyme activity, inhibitor, TR-FRET): < 5.00
Nc1ncc(-c2cnn(C3CCNCC3)c2)cc1-c1nc2ccc(O)cc2o1  pIC50 (kinase activity, HTRF; added: ATP 10 µM): 6.92
N#C/C(=C\c1cccc(-c2cnc3[nH]cnc3c2)c1)C(N)=O  pIC50 (kinase activity, inhibitor; up to highest tested, added: ATP at Km): < 5.00
Cc1ccc2oc(-c3c4c(N)n[nH]c(=O)c4nn3-c3ccc(NC(=O)/C=C/CN(C)C)cc3)c(C)c2c1  pIC50 (enzyme activity, inhibitor, FRET): < 6.00
CCn1c(C)c(Sc2ccc(C)cc2)c(=O)n1-c1ccccc1Cl  pIC50 (enzyme activity, inhibitor, ADP detection): 7.62
CN(C)c1ccc2nc(-c3cc(-c4cnn(C5CCNCC5)c4)cnc3N)oc2c1  pIC50 (enzyme activity, inhibitor, TR-FRET): 6.40
C=CC(=O)N1CCc2ccc(-n3c(=O)ccc4cnc5ccc(-c6cnn(C)c6)cc5c43)cc21  pIC50 (enzyme activity, inhibitor): < 5.00
Nc1ncc(-c2cnn(C3CCNCC3)c2)cc1-c1nc2ccc(N3CCCCC3)cc2o1  pIC50 (enzyme activity, inhibitor, TR-FRET): 6.27
COc1ccc2c(c1)C(=C1Nc3ccccc3C1=NOCC(O)CO)C(=O)N2 (stereo not shown)  pIC50 (enzyme activity, inhibitor, radiometric): 7.13

A few entries again:
Cc1cnc(Nc2cc(C)c(C)c(C)c2)nc1Nc1ccc2oc(=O)[nH]c2c1  pIC50 (enzyme activity, inhibitor): 6.38
CCn1c(C)c(C(=O)c2ccccc2)c(=O)n1-c1cccc(S(N)(=O)=O)c1  pIC50 (enzyme activity, inhibitor, ADP detection): 7.90
